{"data": "Measurements of several laboratories", "note": "Compare with care: the assays were run in different laboratories."}
{"Structure (SMILES)": "COC(=O)N[C@@H](C)CNc1nccc(-c2cn(C(C)C)nc2-c2cc(Cl)cc(NS(C)(=O)=O)c2F)n1", "system": "humans, plasma", "setting": "oral, day 1, single dose, together with: binimetinib", "measurement": "half-life median", "result": "3.22 h"}
{"Structure (SMILES)": "C=CC(=O)N(C)CCOc1c(N)ncnc1-c1cc(F)cc(NC(=O)c2ccc(C3CC3)cc2F)c1C", "system": "human, whole blood", "setting": "oral, 60 mg, single ascending dose, median", "measurement": "half-life", "result": "1.03 h"}
{"Structure (SMILES)": "Cc1cc(Nc2ncnc3ccc(NC4=NC(C)(CO)CO4)cc23)ccc1Oc1ccn2ncnc2c1 (stereo not shown)", "system": "human, plasma", "setting": "oral, 300 mg tucatinib single dose, day 1, tucatinib alone", "measurement": "half-life (arithmetic mean)", "result": "10.3 h"}
{"Structure (SMILES)": "COc1ncc(-c2nc3c(n2C(C)C)[C@H](c2ccc(Cl)cc2)N(c2cc(Cl)cn(C)c2=O)C3=O)c(OC)n1", "system": "human, plasma", "setting": "oral, 120 mg, C1D8, high-dose, median", "measurement": "half-life", "result": "5.5 h"}
{"Structure (SMILES)": "Cc1nc(-c2ccc(OCC(C)C)c(C#N)c2)sc1C(=O)O", "system": "human, plasma", "setting": "oral, 40 mg once daily, together with: verinurad 10 mg", "measurement": "half-life", "result": "6.15 h"}
{"Structure (SMILES)": "CO[C@H]1C[C@@H]2CC[C@@H](C)[C@@](O)(O2)C(=O)C(=O)N2CCCC[C@H]2C(=O)O[C@H]([C@H](C)C[C@@H]2CC[C@@H](OC(=O)NCCOCCOCCOCCOCCOCCOCCOCCOCCC(=O)N3CCc4cc(Cn5nc(-c6ccc7oc(N)nc7c6)c6c(N)ncnc65)ccc4C3)[C@H](OC)C2)C[C@@H](O)[C@H](C)/C=C(\\C)[C@@H](O)[C@@H](OC)C(=O)[C@H](C)C[C@H](C)/C=C/C=C/C=C/1C", "system": "human, plasma", "setting": "intravenous, 16 mg, cycle 1 day 1, arithmetic mean", "measurement": "half-life", "result": "5.5 h"}
{"Structure (SMILES)": "Cc1cc(C)c(CNC(=O)c2cc(Cl)c3c(c2C)O[C@@](C)([C@H]2CC[C@H](N(C)C)CC2)O3)c(=O)[nH]1", "system": "human, plasma", "setting": "oral, 200 mg, cycle 1 day 15", "measurement": "half-life unbound drug", "result": "10.2 h"}
{"Structure (SMILES)": "N#Cc1ccc2c(c1)[C@H]1CCCN(C(=O)c3ccc4[nH]cnc4c3)[C@H]1C2", "system": "human, plasma", "setting": "oral, 240 mg once daily", "measurement": "half-life at steady state", "result": "130 h"}
{"Structure (SMILES)": "CN1CCC(COc2cnc(-c3cccc(Cn4nc(-c5cccc(C#N)c5)ccc4=O)c3)nc2)CC1", "system": "human", "setting": "together with: itraconazole", "how to read": "reference: compound alone", "measurement": "half-life increase", "result": "~27%"}
{"Structure (SMILES)": "O=C(O)CCC(=O)O.[2H]C([2H])([2H])Oc1cc(C)c2[nH]ccc2c1CN1CC[C@@H](C2CC2)C[C@H]1c1ccc(C(=O)O)cc1", "test": "LC-MS/MS, mean", "system": "human, plasma", "setting": "600 mg, single dose, fasting", "measurement": "half-life", "result": "38.5 h"}
{"note": "A few entries again:"}
{"Structure (SMILES)": "Cc1cc(Nc2ncnc3ccc(NC4=NC(C)(CO)CO4)cc23)ccc1Oc1ccn2ncnc2c1 (stereo not shown)", "system": "human, plasma", "setting": "oral, 300 mg tucatinib single dose, day 1, tucatinib alone", "measurement": "half-life (arithmetic mean)", "result": "10.3 h"}
